Results gathered from unrelated publications.
Numbered parts are unrelated; each lists some results of a single study. Substitutions count along the parent as printed.

Set 1
Target: Ras GTPase-activating protein-binding protein 1, full length (G3BP1, Homo sapiens, UniProt Q13283)
Sequence of UniProt Q13283 (whole entry, looked up): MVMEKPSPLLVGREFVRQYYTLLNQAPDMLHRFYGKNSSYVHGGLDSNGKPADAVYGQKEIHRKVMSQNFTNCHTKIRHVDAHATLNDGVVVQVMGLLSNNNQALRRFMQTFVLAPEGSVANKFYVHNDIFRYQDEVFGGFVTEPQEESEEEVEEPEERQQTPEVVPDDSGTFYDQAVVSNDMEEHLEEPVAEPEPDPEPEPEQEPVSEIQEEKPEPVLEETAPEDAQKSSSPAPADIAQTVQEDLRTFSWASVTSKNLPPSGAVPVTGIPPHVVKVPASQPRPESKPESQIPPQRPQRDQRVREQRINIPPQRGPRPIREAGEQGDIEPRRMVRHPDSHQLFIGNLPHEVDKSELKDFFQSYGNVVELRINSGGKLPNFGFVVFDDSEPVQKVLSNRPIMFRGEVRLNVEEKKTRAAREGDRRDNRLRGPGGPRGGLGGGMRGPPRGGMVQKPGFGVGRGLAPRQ
Method: RNA Bind-n-Seq
Molecule type: RNA
Sample: in vitro
Concentration: 200 nM
Notes: whole 134-nt RNA, ends assumed
With: 150 mM LiCl
Reference: input library
Reading: higher = stronger binding
All molecules: 7-deaza-guanosine replaces G
`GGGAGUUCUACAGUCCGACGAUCAAGUCCUGUGCUACACAUCGUAUGUACCGAAUCGGUUUUUUUGGUGGAAAAAAAGGAAAGUAUUAUGUUACGCCGUUCGGAUCUGCACUUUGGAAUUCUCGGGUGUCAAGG` gave a log2 enrichment of -1.29.
`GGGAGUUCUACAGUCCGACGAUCUGCAGUGAUGGUCAUUGUCCUCCAGAGCAGUGAUGGAGGAAAUACCAGCCCAGGAAGCAGCAGGGUCACCAAGGGUCCAGUUUCAGUCUUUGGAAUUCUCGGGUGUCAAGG` gave a log2 enrichment of -0.399.
With `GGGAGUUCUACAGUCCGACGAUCACCAUGGAGGUGGGCAUCUUUGGGAAGUGGGGCAAGGGGGGGAUAGGGAGGGGGGUAACACUUUGGGAACAGGUGGUCCCAGGUCGUUUCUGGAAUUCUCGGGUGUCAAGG` the log2 enrichment was 0.0302.
The log2 enrichment of `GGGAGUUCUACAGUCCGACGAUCCUCAAGUCCUGUGCUACACAUCGUAUGUACCGAAUCGGUUUGGAAAGGAAAGGAAAGUAUUAUGUUACGCCGUUCGGAUCUGCACUUCCAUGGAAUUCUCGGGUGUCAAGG` is reported as 0.211.
For `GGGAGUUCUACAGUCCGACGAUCUAACUUUAGAGGAGGAUCUGAUGGAUAUGGCAGUGGACGUGGAUUUGGGGAUGGCUAUACUGGGUAUGGAGGAGGACCUGGAGGUGGCAAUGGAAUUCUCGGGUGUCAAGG`, the log2 enrichment was -0.289.
With `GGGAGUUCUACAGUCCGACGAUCGUCCUGUGCUACACAUCGUAUGUACCGAAUCGGUUUUUUGGGUUUUUUGGUUUUUUGGGAAAGUAUUAUGUUACGCCGUUCGGAUCUGCAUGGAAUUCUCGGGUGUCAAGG` the log2 enrichment was -1.26.
With `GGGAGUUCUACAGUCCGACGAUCGUCCUGUGCUACACAUCGUAUGUACCGAAUCGGGGCCCCCGGGCCCCCGGCCCCCGGGGAAAGUAUUAUGUUACGCCGUUCGGAUCUGCAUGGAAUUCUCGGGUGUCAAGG` the log2 enrichment was -0.66.
The log2 enrichment of `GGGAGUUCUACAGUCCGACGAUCUCAAGUCCUGUGCUACACAUCGUAUGUACCGAAUCGGAAAGGAAAGGAAAAAGGAAAGUAUUAUGUUACGCCGUUCGGAUCUGCACUUCCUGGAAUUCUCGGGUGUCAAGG` is reported as -0.205.

Set 2
Target: Interferon regulatory factor 5, full length, phosphomimetic (IRF5, Homo sapiens, UniProt Q13568-2, residues 1-514, K96S/S451D/S453D/S456D/S462D)
Method: protein-binding microarray
Molecule type: double-stranded DNA, one strand shown
Sample: in vitro
Concentration: 250 nM
Notes: 60-bp whole probe
With: salmon DNA 0.4 mg/ml
Reference: random background probes
Reading: higher = stronger binding
Shared flanks, not repeated: GCCTAGCAC … GTCTTGATTCGCTTGACGCTGCTG
`TCATTTCTCCTTTGTAAACTGTGCTAG` gave a log fluorescence of 1.92 z-score.
With `TCAAGCTTGGGTCTGTGACTGTGCTAG` the log fluorescence was -0.533 z-score.
The log fluorescence of `TCAACGAATTAGAAAGAGCAGTGCTAG` is reported as 0.541 z-score.
With `TTGGGACTGGGGTATCGGTTAGTGCTA` the log fluorescence was 2.04 z-score.
`GTAGATATCGGGACTGGATTAGTGCTA` gave a log fluorescence of 1.12 z-score.
`TTAGGACTGGGTTTCGGTCAGTGCTAG` gave a log fluorescence of 7.57 z-score.
`GACGGTCTCCGTTTCCTGACGTGCTAG` has a log fluorescence of -0.0337 z-score.
`TCAGCTGTTTTTCTCACACTGTGCTAG` gave a log fluorescence of 0.692 z-score.
The log fluorescence of `TCAATTTTGGTTTTCATACTGTGCTAG` is reported as 2.94 z-score.
With `TCAGTCATCCATCTGAAACTGTGCTAG` the log fluorescence was 0.526 z-score.
With `TTAGATTTCGGGTATCGCTTAGTGCTA` the log fluorescence was 6.07 z-score.
`TTAGATCTCCTACTGCTTTAGTGCTAG` gave a log fluorescence of -0.000258 z-score.
For `GACGATTTCAGTTTGGAGACGTGCTAG`, the log fluorescence was 1.35 z-score.
`TCAGCAAAAATGATTGGACTGTGCTAG` gave a log fluorescence of -0.0284 z-score.
For `GGCGGTCTCGGTTTCGGGACGTGCTAG`, the log fluorescence was 2.73 z-score.
For `GACGGTAACGGTCTCGGGACGTGCTAG`, the log fluorescence was -0.0885 z-score.
`TTAGGTTTCCGTTCCCTTTAGTGCTAG` has a log fluorescence of 1.72 z-score.
`CACTCTTTCCTCACCATACTGTGCTAG` has a log fluorescence of 0.712 z-score.
`ATAGGTTTCCTTTCCCTTTAGTGCTAG` has a log fluorescence of 1.95 z-score.

Set 3
Target: ABI1, truncated, D143A, DHFR fusion (Arabidopsis thaliana)
Method: DHFR PCA, deep sequencing
Sample: yeast
Notes: methotrexate growth selection, single substitutions
With: (+)-ABA 200 µM
Reference: wild-type fitted maximum
Reading: higher = stronger binding
Parent: PYL1, truncated, DHFR fusion (Arabidopsis thaliana); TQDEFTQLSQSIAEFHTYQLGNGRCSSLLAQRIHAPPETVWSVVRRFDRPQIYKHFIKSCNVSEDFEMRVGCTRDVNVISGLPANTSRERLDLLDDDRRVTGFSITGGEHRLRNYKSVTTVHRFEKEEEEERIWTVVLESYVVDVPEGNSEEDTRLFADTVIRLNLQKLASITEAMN; partner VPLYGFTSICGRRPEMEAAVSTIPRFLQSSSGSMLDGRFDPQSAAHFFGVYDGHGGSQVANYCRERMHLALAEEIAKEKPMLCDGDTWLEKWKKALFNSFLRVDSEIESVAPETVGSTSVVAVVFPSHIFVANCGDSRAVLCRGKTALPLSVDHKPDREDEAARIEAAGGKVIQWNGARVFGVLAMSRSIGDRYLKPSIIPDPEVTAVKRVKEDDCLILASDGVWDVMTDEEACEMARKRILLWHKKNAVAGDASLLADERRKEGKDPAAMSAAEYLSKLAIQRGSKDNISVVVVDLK
`F15D` — result for “relative binding score”: 64.7%.
`K54F` — result for “relative binding score”: 11.6%.
Under “relative binding score”, `R49G` is recorded as 77.3%.
Under “relative binding score”, `E67N` is recorded as 98.3%.
For `R45I`, “relative binding score” read 9.03%.
`W134V` — result for “relative binding score”: 111%.
Under “relative binding score”, `R132N` is recorded as 104%.
`S27D` — result for “relative binding score”: 93.4%.
Under “relative binding score”, `Y18K` is recorded as 88.8%.
`I105P` — result for “relative binding score”: -11.5%.
Under “relative binding score”, `K126V` is recorded as 107%.
For `F157G`, “relative binding score” read 0.539%.
`P36L` — result for “relative binding score”: 91.6%.

Set 4
Target: CCNE2, cyclin fold, Cln2 fusion (human)
Method: yeast growth competition, sequencing
Sample: yeast
Notes: strong parent motif
Reference: not given
Reading: higher = stronger binding
Parent: BRCA2 docking peptide (human); PSIKRNLLNEFDR
`PSCKRNLLNEFDR [I3C]` — result for “normalised enrichment score”: 4.66.
For `PSIKRNLLNEKDR [F11K]`, “normalised enrichment score” read -0.326.
`PSIQRNLLNEFDR [K4Q]`: “normalised enrichment score” -0.325.
For `PSIKANLLNEFDR [R5A]`, “normalised enrichment score” read -0.0306.
`PSKKRNLLNEFDR [I3K]` — result for “normalised enrichment score”: 1.05.
`MSIKRNLLNEFDR [P1M]`: “normalised enrichment score” 1.49.
For `PSIKRELLNEFDR [N6E]`, “normalised enrichment score” read 0.384.
Under “normalised enrichment score”, `PSIKRNLLWEFDR [N9W]` is recorded as 2.18.
Under “normalised enrichment score”, `PSIKRHLLNEFDR [N6H]` is recorded as 0.935.
`PSIKRNNLNEFDR [L7N]`: “normalised enrichment score” -1.2.
For `PSICRNLLNEFDR [K4C]`, “normalised enrichment score” read 2.89.
`PSIKPNLLNEFDR [R5P]` — result for “normalised enrichment score”: 0.247.
Under “normalised enrichment score”, `PSIKRNLYNEFDR [L8Y]` is recorded as 0.852.
Under “normalised enrichment score”, `PSIKRWLLNEFDR [N6W]` is recorded as 0.971.
Under “normalised enrichment score”, `PSIKNNLLNEFDR [R5N]` is recorded as -0.0348.
Under “normalised enrichment score”, `PSIKRNLLNEFDI [R13I]` is recorded as 1.87.
`PSIKRNLLYEFDR [N9Y]`: “normalised enrichment score” 3.22.
For `PSIKRNLLNRFDR [E10R]`, “normalised enrichment score” read 0.73.
`PSIKHNLLNEFDR [R5H]`: “normalised enrichment score” -0.254.
`PSIKDNLLNEFDR [R5D]`: “normalised enrichment score” 0.662.
`PSIKLNLLNEFDR [R5L]` — result for “normalised enrichment score”: -0.341.
`PSIKRNLLNVFDR [E10V]` — result for “normalised enrichment score”: 0.705.
For `PSIKRLLLNEFDR [N6L]`, “normalised enrichment score” read 0.0957.
Under “normalised enrichment score”, `PSIKRNLLNFFDR [E10F]` is recorded as 1.55.
For `PSIKRNLTNEFDR [L8T]`, “normalised enrichment score” read 0.962.
